Results gathered from unrelated publications.
Cell line: SN12C

| SMILES | test | setting | how to read | endpoint | value |
| --- | --- | --- | --- | --- | --- |
| C#C[C@@]1(O)[C@@H](CO)O[C@@H](n2cc(Br)c3c(N)ncnc32)[C@@H]1O | SRB | NCI-60 screen | – | TGI | > 100 µM |
| CCCCN1CCN(c2ccc3[nH]c(-c4ccc5[nH]c(-c6ccc(OCC)cc6)nc5c4)nc3c2)CC1 | SRB | 10 µM, 48 h | – | growth percent | 76.8% |
| CCN(CC)c1ccc(C=NNC(=O)CSc2nc3ccccc3c(=O)n2Cc2ccc(S(N)(=O)=O)cc2)c(O)c1 | NCI five-dose screen | – | – | TGI | > 100 µM |
| O=C(Nc1nnc2[nH]c(=S)[nH]c(-c3ccc(Cl)cc3)c1-2)c1ccccc1 | SRB | 10 µM, NCI60 single-dose screen | baseline: untreated | cell growth | 100% |
| Cn1cncc1C1=CN(c2ncnc3[nH]cnc23)CCS1 | – | renal cancer | – | GI50 | 15.5 µM |
| O=C1NC(=NCc2cccs2)S/C1=C\c1ccc2ncccc2c1 | MTS | NCI60 panel | – | IC50 | > 10 µM |
| NNc1nc(-c2ccc(Cl)cc2)c2c(NC(=O)c3ccccc3)nnc-2[nH]1 | SRB | 10 µM, NCI60 single-dose screen | baseline: untreated | cell growth | 92.6% |
| CCCCN1CCN(c2ccc3[nH]c(-c4ccc5[nH]c(-c6ccc(C(F)(F)F)cc6)nc5c4)nc3c2)CC1 | SRB | 10 µM, 48 h | – | growth percent | -80.9% |
| C#C[C@@]1(O)[C@@H](CO)O[C@@H](n2cc(F)c3c(N)ncnc32)[C@@H]1O | SRB | NCI-60 screen | – | TGI | 4.74 µM |
| O=C(Nc1nnc2n3c(Cc4ccccc4)n[nH]c3nc(-c3ccc(Cl)cc3)c1-2)c1ccccc1 | SRB | 10 µM, NCI60 single-dose screen | baseline: untreated | cell growth | 104% |
| CCCN1CCN(c2ccc3[nH]c(-c4ccc5[nH]c(-c6cc(OC)c(OC)c(OC)c6)nc5c4)nc3c2)CC1 | SRB | 10 µM, 48 h | – | growth percent | 85.4% |
| O=C(Nc1nnc2n3c(=S)[nH][nH]c3nc(-c3ccc(Cl)cc3)c1-2)c1ccccc1 | SRB | 10 µM, NCI60 single-dose screen | baseline: untreated | cell growth | 97.1% |
| Cc1cc(C)n(C(=S)[S][Au][PH](CCCCCC[PH]([Au][S]C(=S)n2nc(C)cc2C)(c2ccccc2)c2ccccc2)(c2ccccc2)c2ccccc2)n1 | cell growth, NCI-60 screen | renal cancer | – | log10 TGI | > -4 |
| CCCCN1CCN(c2ccc3[nH]c(-c4ccc5[nH]c(-c6ccc(OCC)c(OCC)c6)nc5c4)nc3c2)CC1 | SRB | 10 µM, 48 h | – | growth percent | 18.8% |
| Cc1n[nH]c2nc(-c3ccc(Cl)cc3)c3c(NC(=O)c4ccccc4)nnc-3n12 | SRB | 10 µM, NCI60 single-dose screen | baseline: untreated | cell growth | 104% |
